Results collected from several papers.
A part holds a random share of what one study measured.

Set 1 — method: protein binding microarray; molecule type: double-stranded DNA, one strand shown; sample: in vitro; tested at: not given; relative to: not given; direction: higher = stronger binding
Target: Histone acetyltransferase KAT6A, winged helix 2, GST fusion (KAT6A, Homo sapiens, UniProt Q92794, residues 85-181)
Setting: 8-mer, flanks averaged, mean of 2 arrays, mostly near background
Residues (chain): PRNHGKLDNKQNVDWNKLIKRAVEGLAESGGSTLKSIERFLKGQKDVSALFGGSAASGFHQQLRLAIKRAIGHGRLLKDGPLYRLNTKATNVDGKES
| Oligonucleotide | E-score |
| --- | --- |
| GATTCAGA | 0.134 |
| CGGTAACC | 0.0689 |
| ATTTTATC | 0.0706 |
| CGCCCGAA | 0.0652 |
| AACCACAC | 0.0253 |

Set 2 — method: RNA Bind-n-Seq; molecule type: RNA; sample: in vitro; tested at: 1 µM; setting: whole 134-nt RNA, ends assumed; added: 150 mM KCl; relative to: input library; direction: higher = stronger binding
Target: Ras GTPase-activating protein-binding protein 1, C-terminal RGG region (G3BP1, Homo sapiens, UniProt Q13283)
UniProt Q13283, sequence (whole entry, looked up): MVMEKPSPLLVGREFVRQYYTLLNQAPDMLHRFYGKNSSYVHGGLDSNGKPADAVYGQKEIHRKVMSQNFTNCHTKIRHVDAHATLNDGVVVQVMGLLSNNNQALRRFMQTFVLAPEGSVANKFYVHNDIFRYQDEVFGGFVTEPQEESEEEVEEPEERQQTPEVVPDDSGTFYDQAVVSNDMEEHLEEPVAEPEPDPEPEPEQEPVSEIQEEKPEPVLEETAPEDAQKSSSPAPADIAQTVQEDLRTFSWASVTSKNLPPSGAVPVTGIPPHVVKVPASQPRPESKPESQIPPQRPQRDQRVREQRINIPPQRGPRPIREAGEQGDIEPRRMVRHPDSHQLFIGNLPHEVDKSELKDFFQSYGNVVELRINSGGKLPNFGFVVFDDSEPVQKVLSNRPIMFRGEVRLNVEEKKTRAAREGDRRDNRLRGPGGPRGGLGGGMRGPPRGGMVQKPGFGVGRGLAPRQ
Constant ends, left off below: GGGAGUUCUACAGUCCGACGAUC … UGGAAUUCUCGGGUGUCAAGG
| Oligonucleotide | log2 enrichment |
| --- | --- |
| UGCAUGUGCACUGAUAGGCCAAGGCCAGCUGAACCAGGCCAUGAAAAUCCUACAAAAAGCUGAAGGUUGGAAGUUUGUUAAACUUAUCUG | -2.06 |
| UUUGAAGAUCAGCUUCAGCAAUGGUUGUCUGAAGACUCAGGAGCAUUUACGGAUUUAACUUCCCUUCCCCUCUAUCUUCCUCAGACUCUA | -0.565 |
| UGGAAGGAACGAGCCAGGAAGAGGGACUGGAACCAUCUCAGAAGCCAUGCCCCUCAGGCUGGAACUUGCCCUGUCUCCUCGCAGAUGAGG | -1.93 |
| CUUUGGUUGACAGGAAGUUCCUUUUCCAGGCAGGUCCCGUUGCCACCUCCUGCUCACUCAGUCCCGGGCUCUGCCGAGUGGUCCUGGGAA | 0.587 |
| AGUCCUGUGCUACACAUCGUAUGUACCGAAUCGGGAAAGGGUUUGGGAAAAAAAGGGAAAGUAUUAUGUUACGCCGUUCGGAUCUGCACU | -0.397 |

Set 3 — method: universal PBM; molecule type: double-stranded DNA, one strand shown; sample: in vitro; tested at: not given; direction: higher = stronger binding
Target: Sal-like protein 4, full length isoform B (SALL4, Homo sapiens, UniProt Q9UJQ4-2, residues 1-616)
Setting: 8-mer, flanks averaged, mean of replicates
Residues (chain): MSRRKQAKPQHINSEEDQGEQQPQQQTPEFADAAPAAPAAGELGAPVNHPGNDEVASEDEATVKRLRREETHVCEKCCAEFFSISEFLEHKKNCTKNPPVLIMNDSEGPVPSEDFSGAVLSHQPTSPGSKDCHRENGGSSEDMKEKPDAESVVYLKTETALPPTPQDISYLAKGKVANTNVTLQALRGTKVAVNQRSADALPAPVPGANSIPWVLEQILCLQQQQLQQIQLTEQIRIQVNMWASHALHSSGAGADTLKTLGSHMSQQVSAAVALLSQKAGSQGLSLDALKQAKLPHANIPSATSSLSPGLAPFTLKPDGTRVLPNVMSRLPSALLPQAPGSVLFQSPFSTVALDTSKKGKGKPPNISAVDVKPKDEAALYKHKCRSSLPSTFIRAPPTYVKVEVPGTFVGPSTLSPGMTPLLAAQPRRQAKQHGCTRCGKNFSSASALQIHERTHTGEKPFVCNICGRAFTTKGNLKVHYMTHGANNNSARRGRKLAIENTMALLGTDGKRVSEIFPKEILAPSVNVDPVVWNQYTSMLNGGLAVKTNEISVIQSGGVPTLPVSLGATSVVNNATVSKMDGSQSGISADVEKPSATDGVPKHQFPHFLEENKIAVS
| Oligonucleotide | E-score |
| --- | --- |
| CGTGTGAG | -0.201 |
| ACTTAGGA | 0.033 |
| GGATTCAC | -0.105 |
| ACCTAATA | 0.284 |
| GGTAATAA | 0.324 |
| AACCAATG | 0.138 |
| CGAAATAA | 0.239 |
| ACGCGGGG | -0.284 |

Other studies, line by line
| Molecule | target | test | test system | setting | scale | quantity | value |
| --- | --- | --- | --- | --- | --- | --- | --- |
| PhoQ, residues 284 288 289 292 302 303 SLANIV | PhoP, residues 12 14 15 18 19 LYFRQ (Escherichia coli, UniProt P23836) | Sort-seq, item: YFP reporter | E. coli | PhoQ-PhoP variant library, added: 10 µM Mg2+ | relative to: high Mg2+ state, higher = stronger signaling | fold induction | 8.74 |

For quick reference, copied from above (set 3):
| Oligonucleotide | E-score |
| --- | --- |
| ACTTAGGA | 0.033 |
| GGATTCAC | -0.105 |
